Assay results collected from several papers.
Parts stem from different laboratories: compare values within a part only. Positions count from the first letter of the parent shown.

Block 1
Target: CCNE1, cyclin fold, Cln2 fusion (human)
Method: yeast growth competition, sequencing
Matrix: yeast
Setting: strong parent motif
Reference: not given
Direction: higher = stronger binding
Parent: INSM1 docking peptide (human); PKAIRKLHFEDEV; partner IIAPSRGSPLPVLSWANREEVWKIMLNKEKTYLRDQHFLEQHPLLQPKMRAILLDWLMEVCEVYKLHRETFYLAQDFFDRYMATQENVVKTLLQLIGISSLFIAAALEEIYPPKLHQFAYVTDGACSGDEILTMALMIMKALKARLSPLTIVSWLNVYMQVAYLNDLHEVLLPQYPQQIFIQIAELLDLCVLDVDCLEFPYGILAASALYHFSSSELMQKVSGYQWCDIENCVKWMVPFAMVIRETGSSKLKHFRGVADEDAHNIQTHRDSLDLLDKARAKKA
`PKAIQKLHFEDEV [R5Q]`: “normalised enrichment score” 0.344.
`PKAIRKIHFEDEV [L7I]`: “normalised enrichment score” 1.35.
Under “normalised enrichment score”, `PKAIRKLHFETEV [D11T]` is recorded as 3.16.
For `PKAIRKPHFEDEV [L7P]`, “normalised enrichment score” read 0.274.
Under “normalised enrichment score”, `PKAIRVLHFEDEV [K6V]` is recorded as 4.24.
`PYAIRKLHFEDEV [K2Y]` — result for “normalised enrichment score”: 3.67.
Under “normalised enrichment score”, `PKAQRKLHFEDEV [I4Q]` is recorded as 2.48.
`PKAIRKLHFEEEV [D11E]` — result for “normalised enrichment score”: 4.64.
For `PKAIRKLHCEDEV [F9C]`, “normalised enrichment score” read -0.189.
For `PKAIRKLLFEDEV [H8L]`, “normalised enrichment score” read 5.27.
Under “normalised enrichment score”, `PKAIRKLHFEDGV [E12G]` is recorded as 3.53.
Under “normalised enrichment score”, `PKANRKLHFEDEV [I4N]` is recorded as 2.58.
Under “normalised enrichment score”, `PKAIRKLWFEDEV [H8W]` is recorded as 4.65.
`PKKIRKLHFEDEV [A3K]`: “normalised enrichment score” 0.699.
`PKAIIKLHFEDEV [R5I]`: “normalised enrichment score” 0.14.
`PKAFRKLHFEDEV [I4F]`: “normalised enrichment score” 3.6.
`PKAIRKLHHEDEV [F9H]`: “normalised enrichment score” -0.086.
`PKAIRKDHFEDEV [L7D]`: “normalised enrichment score” -0.272.
For `PKAIRKLHFDDEV [E10D]`, “normalised enrichment score” read 4.65.
`PKACRKLHFEDEV [I4C]` — result for “normalised enrichment score”: 5.88.

Block 2
Target: Prothrombin, mature alpha-thrombin (F2, Homo sapiens, UniProt P00734)
Method: aptamer microarray, sandwich
Molecule type: DNA with 2'F-ANA
Matrix: in vitro
Concentration: 200 nM
Setting: whole 15-mer aptamer, many near background
Together with: Cy3 exosite-II aptamer, 400 nM
Direction: higher = stronger binding
Oligonucleotide: GGTTGGTGTGGTTGG
`2'F-ANA at 1 3 6 7 8 11 12 14 15` — result for “mean fluorescence intensity”: 119 a.u.
`2'F-ANA at 1 2 4 6 8 12 14` — result for “mean fluorescence intensity”: 76.5 a.u.
`2'F-ANA at 1 3 4 5 9 10 12` — result for “mean fluorescence intensity”: 49.7 a.u.
`2'F-ANA at 2 6 9 13 14` — result for “mean fluorescence intensity”: 99.5 a.u.
Under “mean fluorescence intensity”, `2'F-ANA at 1 2 3 5 6 7 8 9 10 13` is recorded as 70.1 a.u.
`2'F-ANA at 1 2 3 5 9 10 11 12 13` — result for “mean fluorescence intensity”: 62.4 a.u.
Under “mean fluorescence intensity”, `2'F-ANA at 2 4 5 8 9 10 11 13 15` is recorded as 48.1 a.u.
For `2'F-ANA at 1 3 5 7 13 15`, “mean fluorescence intensity” read 57 a.u.
For `2'F-ANA at 1 3 4 5 8 9 10 13 15`, “mean fluorescence intensity” read 47.1 a.u.
`2'F-ANA at 2 3 7 8 9 10 13 15`: “mean fluorescence intensity” 343 a.u.
For `2'F-ANA at 1 2 7 8 13 14 15`, “mean fluorescence intensity” read 90.2 a.u.
For `2'F-ANA at 1 5 6 9 10 12`, “mean fluorescence intensity” read 46.9 a.u.
For `2'F-ANA at 3 5 7 9 12`, “mean fluorescence intensity” read 240 a.u.
`2'F-ANA at 3 4 5 6 7 10 12 13`: “mean fluorescence intensity” 49.6 a.u.
Under “mean fluorescence intensity”, `2'F-ANA at 2 3 4 5 9 10 11 12 13 15` is recorded as 56.6 a.u.
`2'F-ANA at 2 4 5 7 10 12 13 14`: “mean fluorescence intensity” 50.3 a.u.
`2'F-ANA at 1 2 4 5 7 8 9 10 11 15`: “mean fluorescence intensity” 49.5 a.u.
`2'F-ANA at 1 5 6 7 9 10 11 12 13 15` — result for “mean fluorescence intensity”: 50.9 a.u.
`2'F-ANA at 5 6 9 11 13`: “mean fluorescence intensity” 69.1 a.u.
`2'F-ANA at 2 6 8 9 12 13` — result for “mean fluorescence intensity”: 496 a.u.
`2'F-ANA at 1 2 3 4 7 8 9 10 13 15` — result for “mean fluorescence intensity”: 54.6 a.u.
`2'F-ANA at 1 2 3 5 6 9 11 13 15`: “mean fluorescence intensity” 62.2 a.u.

Block 3
Target: RING finger protein unkempt homolog, zinc fingers 1-6, GST-SBP tag (UNK, Homo sapiens, UniProt Q9C0B0, residues 30-357)
Sequence of UniProt Q9C0B0 (30-357, looked up): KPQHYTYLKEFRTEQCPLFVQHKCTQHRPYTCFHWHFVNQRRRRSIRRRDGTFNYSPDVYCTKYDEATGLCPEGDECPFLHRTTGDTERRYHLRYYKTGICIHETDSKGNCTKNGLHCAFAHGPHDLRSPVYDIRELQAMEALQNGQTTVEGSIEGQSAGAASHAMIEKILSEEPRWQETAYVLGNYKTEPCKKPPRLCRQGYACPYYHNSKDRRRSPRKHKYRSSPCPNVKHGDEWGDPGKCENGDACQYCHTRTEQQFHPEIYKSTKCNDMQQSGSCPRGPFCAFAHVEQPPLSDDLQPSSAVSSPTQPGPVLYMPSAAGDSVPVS
Method: RNA Bind-n-Seq
Molecule type: RNA
Matrix: in vitro
Concentration: not given
Setting: RNA with constant flanks, human-mouse chimeric sites, ends assumed
Reference: input RNA pool
Direction: higher = stronger binding
Shared flanks, not repeated: GGGAGUUCUACAGUCCGACGAUC … CAACAGAGGAUUGAGCAUCA
With `AAAGCCCAAGUAUUUUGAAAAAACUCGAACAGAUUUGUCAAGGGUAACCAGCUUGGAGUCUAGCAACUUUGCCAAUGGUUUACCAAUCUGGGGGCUUGUUUUUCUUUUCUUCUUUCAAAU` the bound/input enrichment was 0.259 ratio.
`GACCCACAGUGGUCUGAGGAACAGCUGAUUGCUGCAAAAUUCUGUUUUGCUGGCCUUGUUAUAGGGCAGACUGAAGUGGACAUCAUGAGUCAUGCCACACAAGCUAUUUUUGAAAUUCUG` has a bound/input enrichment of 0.261 ratio.
For `AAUUUCCUGUCAUACUUUUUAGACAUUCACAUCAGACGCCUUACUACUUGGGCCUCUUUCUAGGUUUGUGUUAUUUCUCAGCUAUGGAUAUGAUCAAAUGAGAACACUGCUUAACUAAUG`, the bound/input enrichment was 0.948 ratio.
For `UAAGUUAAGCUUUUAAUCUUUGUAAAUUGUAUAGCUUUUUAUAUUGCCAUGUUUAUUUUGUUUGGGUAAUUUGGUUCAUUAAGUACAUAGCUAAGGUAAUGAACAUCUUUUUCAGUAAUU`, the bound/input enrichment was 1.05 ratio.
For `AAAGUGGACUAUGGUGAGUACAUGGAUAAAAACAAUGUGAGGCGGCAAGCAACAACAAUCAUAGCUGAUAAUAUUAUAUUUCUGAGUGACCAGACAAAAGAAAAGGCAUAGAACGGAUGA`, the bound/input enrichment was 5.94 ratio.
The bound/input enrichment of `GCCACCAGAUCCCAGAAACAUGACUCUUGCUGCCUACAAAGAGAAGAUGAAGGAGCUCCCACUAGUGUCCUUGUUCUGCUCCUGCUUCCUGGCCGAUCCCCUGAAUAAGUCGUCCUACAA` is reported as 0.834 ratio.
The bound/input enrichment of `AAAGAUCUACUGAGGCAAGGCAGCAAAUUUAGAAGAAACAUUUCAACAAUAUUGAUAGAGUUAGGAUUCCAAAUUAAAAAGAAAACUAAGACAUUAUACAUCAACAAAGCCAAUGUGUGG` is reported as 13.7 ratio.
`CAGUUGAAGACAGAAAAGGAUGAGAAGGAGCUGUAUAAGGUACAUUUGAAGAAUACAGAAAUAGAAAAUACGAAGCUUGUGUCAGAGAUACAGACUUUAAAAAAUUUAGAUGGAAACAAA` has a bound/input enrichment of 3.76 ratio.

Block 4
Target: ABI1, truncated, D143A, DHFR fusion (Arabidopsis thaliana)
Method: DHFR PCA, deep sequencing
Matrix: yeast
Setting: methotrexate growth selection, single substitutions
Together with: (+)-ABA 200 µM
Reference: wild-type fitted maximum
Direction: higher = stronger binding
Parent: PYL1, truncated, DHFR fusion (Arabidopsis thaliana); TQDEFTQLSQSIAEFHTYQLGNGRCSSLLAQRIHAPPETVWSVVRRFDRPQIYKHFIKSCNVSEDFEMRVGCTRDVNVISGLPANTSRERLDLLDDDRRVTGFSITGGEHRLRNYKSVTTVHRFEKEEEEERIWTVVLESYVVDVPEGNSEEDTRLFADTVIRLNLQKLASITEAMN
Under “relative binding score”, `G102Q` is recorded as 73.5%.
Under “relative binding score”, `R74M` is recorded as 7.7%.
Under “relative binding score”, `S87N` is recorded as 7.62%.
Under “relative binding score”, `L82S` is recorded as 28.8%.
`E109I`: “relative binding score” 98.5%.
For `S9K`, “relative binding score” read 109%.
`A170W`: “relative binding score” 20.3%.
Under “relative binding score”, `R155N` is recorded as 74.8%.
For `S104C`, “relative binding score” read 81.1%.
`P83V` — result for “relative binding score”: 14.7%.
For `N61I`, “relative binding score” read 107%.
Under “relative binding score”, `V145F` is recorded as 31.1%.
For `E128R`, “relative binding score” read 109%.
`T135P` — result for “relative binding score”: 8.39%.
`V118A`: “relative binding score” 71.9%.

Some of these lines once more (block 4):
Under “relative binding score”, `G102Q` is recorded as 73.5%.
`A170W`: “relative binding score” 20.3%.
Under “relative binding score”, `S87N` is recorded as 7.62%.
For `N61I`, “relative binding score” read 107%.
Under “relative binding score”, `R74M` is recorded as 7.7%.
Under “relative binding score”, `L82S` is recorded as 28.8%.
Under “relative binding score”, `R155N` is recorded as 74.8%.
Under “relative binding score”, `V145F` is recorded as 31.1%.
`T135P` — result for “relative binding score”: 8.39%.
